Measurements from different studies.
Each numbered part is a random draw from the data of one study; scales do not carry over between parts.
Chain of UniProt Q9Y2H9 (whole entry, looked up): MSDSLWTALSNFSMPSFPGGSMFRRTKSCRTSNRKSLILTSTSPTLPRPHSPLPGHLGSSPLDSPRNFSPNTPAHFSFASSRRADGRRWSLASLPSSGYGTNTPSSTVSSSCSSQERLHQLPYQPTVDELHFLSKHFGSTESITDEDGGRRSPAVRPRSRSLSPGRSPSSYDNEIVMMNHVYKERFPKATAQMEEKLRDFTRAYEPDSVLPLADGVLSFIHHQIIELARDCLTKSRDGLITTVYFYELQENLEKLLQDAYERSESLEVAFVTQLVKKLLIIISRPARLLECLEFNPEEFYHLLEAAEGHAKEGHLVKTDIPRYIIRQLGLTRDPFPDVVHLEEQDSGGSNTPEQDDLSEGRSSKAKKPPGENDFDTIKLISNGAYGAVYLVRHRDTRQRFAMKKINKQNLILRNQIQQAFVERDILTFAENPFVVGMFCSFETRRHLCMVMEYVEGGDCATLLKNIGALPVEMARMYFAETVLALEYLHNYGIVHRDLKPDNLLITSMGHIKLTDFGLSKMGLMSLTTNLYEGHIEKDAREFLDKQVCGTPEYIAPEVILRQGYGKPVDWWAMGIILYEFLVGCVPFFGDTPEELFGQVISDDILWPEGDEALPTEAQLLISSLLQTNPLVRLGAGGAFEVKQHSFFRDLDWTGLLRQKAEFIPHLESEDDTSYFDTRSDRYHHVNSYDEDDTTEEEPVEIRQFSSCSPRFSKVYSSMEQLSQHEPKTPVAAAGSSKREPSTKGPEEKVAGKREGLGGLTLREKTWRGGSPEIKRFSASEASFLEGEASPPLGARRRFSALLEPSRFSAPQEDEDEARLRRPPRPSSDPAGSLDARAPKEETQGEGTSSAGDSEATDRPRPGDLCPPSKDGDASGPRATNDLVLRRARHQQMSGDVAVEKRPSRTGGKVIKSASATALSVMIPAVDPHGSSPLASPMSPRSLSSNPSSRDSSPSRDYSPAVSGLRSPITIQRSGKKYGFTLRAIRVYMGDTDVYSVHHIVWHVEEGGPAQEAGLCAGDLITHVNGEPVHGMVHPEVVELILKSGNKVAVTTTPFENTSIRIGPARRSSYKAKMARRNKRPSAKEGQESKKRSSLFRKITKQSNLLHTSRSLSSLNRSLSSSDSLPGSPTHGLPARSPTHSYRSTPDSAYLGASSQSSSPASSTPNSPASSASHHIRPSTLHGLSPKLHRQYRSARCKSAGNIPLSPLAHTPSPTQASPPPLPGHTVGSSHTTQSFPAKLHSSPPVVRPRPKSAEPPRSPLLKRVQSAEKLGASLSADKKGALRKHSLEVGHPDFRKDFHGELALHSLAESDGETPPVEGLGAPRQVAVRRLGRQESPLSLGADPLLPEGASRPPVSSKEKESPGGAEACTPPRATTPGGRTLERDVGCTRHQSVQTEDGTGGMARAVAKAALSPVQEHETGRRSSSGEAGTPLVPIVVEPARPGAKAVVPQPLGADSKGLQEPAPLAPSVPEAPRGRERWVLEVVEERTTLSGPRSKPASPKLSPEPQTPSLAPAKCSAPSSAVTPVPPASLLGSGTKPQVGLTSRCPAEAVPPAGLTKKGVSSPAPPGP
Chain of UniProt P15735 (whole entry, looked up): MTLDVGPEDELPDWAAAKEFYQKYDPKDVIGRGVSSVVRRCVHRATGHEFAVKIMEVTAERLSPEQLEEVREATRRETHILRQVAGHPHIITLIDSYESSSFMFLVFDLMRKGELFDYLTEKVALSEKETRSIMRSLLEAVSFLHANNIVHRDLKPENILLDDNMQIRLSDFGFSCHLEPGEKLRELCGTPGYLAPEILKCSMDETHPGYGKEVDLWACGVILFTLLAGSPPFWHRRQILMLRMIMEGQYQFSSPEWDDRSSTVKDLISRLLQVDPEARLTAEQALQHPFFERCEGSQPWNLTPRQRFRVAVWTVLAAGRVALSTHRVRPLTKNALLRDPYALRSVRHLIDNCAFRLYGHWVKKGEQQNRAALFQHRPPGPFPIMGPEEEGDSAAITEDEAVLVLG

Sample 1
Target: G protein-coupled receptor kinase 6 (GRK6, Homo sapiens, UniProt P43250)
Chain of UniProt P43250 (whole entry, looked up): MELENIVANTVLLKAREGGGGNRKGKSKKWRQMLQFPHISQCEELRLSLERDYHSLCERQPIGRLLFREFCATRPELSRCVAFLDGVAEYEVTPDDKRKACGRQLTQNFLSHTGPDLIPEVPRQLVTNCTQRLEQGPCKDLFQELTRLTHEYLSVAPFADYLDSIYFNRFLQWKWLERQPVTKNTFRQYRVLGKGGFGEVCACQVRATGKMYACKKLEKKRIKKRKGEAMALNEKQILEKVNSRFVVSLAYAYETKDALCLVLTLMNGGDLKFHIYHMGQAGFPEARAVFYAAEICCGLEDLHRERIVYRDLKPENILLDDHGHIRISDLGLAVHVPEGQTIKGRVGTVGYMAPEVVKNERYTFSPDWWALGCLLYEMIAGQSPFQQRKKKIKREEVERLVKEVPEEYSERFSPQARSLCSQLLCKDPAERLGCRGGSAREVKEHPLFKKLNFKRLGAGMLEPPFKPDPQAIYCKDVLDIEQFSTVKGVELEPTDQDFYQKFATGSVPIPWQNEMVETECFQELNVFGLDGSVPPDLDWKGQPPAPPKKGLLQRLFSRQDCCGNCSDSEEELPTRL
Effect on: enzyme activity
Action: inhibitor
Concentration: 0.5 µM
Reference: control
Measurement: remaining activity
COc1cc2c(N3CCN(C(=O)Nc4ccc(OC(C)C)cc4)CC3)ncnc2cc1OCCCN1CCCCC1: 105%
O=c1c(-c2ccc(F)cc2)c(-c2ccncc2)[nH]n1-c1ccc(Cl)cc1: 90.1%
N#CC(c1ccnc(NCCc2cccnc2)n1)c1nc2ccccc2s1 (centres unmarked): 87.6%
N#C/C(=C(/N)SC1C=CC=CC1)c1cccc(C(O)c2ccncc2)c1 (centres unmarked): 84.3%
O=C1NC(=O)/C(=C/c2ccc3c(c2)OC(F)(F)O3)S1: 95.4%
NC(=O)c1cccc(-c2cc(Nc3ccc(OC(F)(F)F)cc3)ncn2)c1: 101%
Clc1ccc(Nc2nnc(Cc3ccncc3)c3ccccc23)cc1: 99.9%
O=Nc1c(-c2c(O)[nH]c3ccccc23)[nH]c2ccccc12: 89.4%
CCN(CC)CCCCN1c2ccccc2Oc2ccc(Cl)cc21: 88.4%
CC(C)(C)c1nc2c3cc[nH]c(=O)c3c3cc(F)ccc3c2[nH]1: 48.2%
O=C(O)/C=C/c1cc(Br)c(Br)c(Br)c1Br: 97.2%
CC(C)n1cnc2c(Nc3cccc(Cl)c3)nc(NCCO)nc21: 88.8%
Nc1nc(Nc2ccc(S(N)(=O)=O)cc2)nn1C(=S)Nc1c(F)cccc1F: 89.4%
NC(=O)c1ccc(-c2nc(-c3ccc4c(c3)OCCO4)c(-c3ccccn3)[nH]2)cc1: 102%
O=C1c2ccccc2-c2nc3nnnn3nc21: 58%
CCCCc1c(-c2ccc(O)cc2)[nH]c2nccnc12: 83.5%
FC(F)(F)c1ccc(/C=C/c2nc(COc3ccc(CCCCn4ccnn4)cc3)co2)cc1: 104%
CC(C)N(CCC(=O)c1ccc2ccccc2c1)Cc1ccccc1: 87.1%
COc1cc2c(Nc3ccc(Br)cc3F)ncnc2cc1OCC1CCN(C)CC1: 104%
CNc1cc2c(Nc3cccc(Br)c3)ncnc2cn1: 91.1%
O=C(c1ccccc1)c1ccc(N2CCOCC2)cc1O: 99.5%
c1cc(-c2cnn3cc(-c4ccc(OCCN5CCCCC5)cc4)cnc23)ccn1: 90.2%
C[C@@H](N)[C@H]1CC[C@H](C(=O)Nc2ccncc2)CC1: 91.4%

Sample 2
Target: DNA polymerase theta, ATPase domain (POLQ, Homo sapiens, UniProt O75417)
Chain of UniProt O75417 (whole entry, unmodified, looked up): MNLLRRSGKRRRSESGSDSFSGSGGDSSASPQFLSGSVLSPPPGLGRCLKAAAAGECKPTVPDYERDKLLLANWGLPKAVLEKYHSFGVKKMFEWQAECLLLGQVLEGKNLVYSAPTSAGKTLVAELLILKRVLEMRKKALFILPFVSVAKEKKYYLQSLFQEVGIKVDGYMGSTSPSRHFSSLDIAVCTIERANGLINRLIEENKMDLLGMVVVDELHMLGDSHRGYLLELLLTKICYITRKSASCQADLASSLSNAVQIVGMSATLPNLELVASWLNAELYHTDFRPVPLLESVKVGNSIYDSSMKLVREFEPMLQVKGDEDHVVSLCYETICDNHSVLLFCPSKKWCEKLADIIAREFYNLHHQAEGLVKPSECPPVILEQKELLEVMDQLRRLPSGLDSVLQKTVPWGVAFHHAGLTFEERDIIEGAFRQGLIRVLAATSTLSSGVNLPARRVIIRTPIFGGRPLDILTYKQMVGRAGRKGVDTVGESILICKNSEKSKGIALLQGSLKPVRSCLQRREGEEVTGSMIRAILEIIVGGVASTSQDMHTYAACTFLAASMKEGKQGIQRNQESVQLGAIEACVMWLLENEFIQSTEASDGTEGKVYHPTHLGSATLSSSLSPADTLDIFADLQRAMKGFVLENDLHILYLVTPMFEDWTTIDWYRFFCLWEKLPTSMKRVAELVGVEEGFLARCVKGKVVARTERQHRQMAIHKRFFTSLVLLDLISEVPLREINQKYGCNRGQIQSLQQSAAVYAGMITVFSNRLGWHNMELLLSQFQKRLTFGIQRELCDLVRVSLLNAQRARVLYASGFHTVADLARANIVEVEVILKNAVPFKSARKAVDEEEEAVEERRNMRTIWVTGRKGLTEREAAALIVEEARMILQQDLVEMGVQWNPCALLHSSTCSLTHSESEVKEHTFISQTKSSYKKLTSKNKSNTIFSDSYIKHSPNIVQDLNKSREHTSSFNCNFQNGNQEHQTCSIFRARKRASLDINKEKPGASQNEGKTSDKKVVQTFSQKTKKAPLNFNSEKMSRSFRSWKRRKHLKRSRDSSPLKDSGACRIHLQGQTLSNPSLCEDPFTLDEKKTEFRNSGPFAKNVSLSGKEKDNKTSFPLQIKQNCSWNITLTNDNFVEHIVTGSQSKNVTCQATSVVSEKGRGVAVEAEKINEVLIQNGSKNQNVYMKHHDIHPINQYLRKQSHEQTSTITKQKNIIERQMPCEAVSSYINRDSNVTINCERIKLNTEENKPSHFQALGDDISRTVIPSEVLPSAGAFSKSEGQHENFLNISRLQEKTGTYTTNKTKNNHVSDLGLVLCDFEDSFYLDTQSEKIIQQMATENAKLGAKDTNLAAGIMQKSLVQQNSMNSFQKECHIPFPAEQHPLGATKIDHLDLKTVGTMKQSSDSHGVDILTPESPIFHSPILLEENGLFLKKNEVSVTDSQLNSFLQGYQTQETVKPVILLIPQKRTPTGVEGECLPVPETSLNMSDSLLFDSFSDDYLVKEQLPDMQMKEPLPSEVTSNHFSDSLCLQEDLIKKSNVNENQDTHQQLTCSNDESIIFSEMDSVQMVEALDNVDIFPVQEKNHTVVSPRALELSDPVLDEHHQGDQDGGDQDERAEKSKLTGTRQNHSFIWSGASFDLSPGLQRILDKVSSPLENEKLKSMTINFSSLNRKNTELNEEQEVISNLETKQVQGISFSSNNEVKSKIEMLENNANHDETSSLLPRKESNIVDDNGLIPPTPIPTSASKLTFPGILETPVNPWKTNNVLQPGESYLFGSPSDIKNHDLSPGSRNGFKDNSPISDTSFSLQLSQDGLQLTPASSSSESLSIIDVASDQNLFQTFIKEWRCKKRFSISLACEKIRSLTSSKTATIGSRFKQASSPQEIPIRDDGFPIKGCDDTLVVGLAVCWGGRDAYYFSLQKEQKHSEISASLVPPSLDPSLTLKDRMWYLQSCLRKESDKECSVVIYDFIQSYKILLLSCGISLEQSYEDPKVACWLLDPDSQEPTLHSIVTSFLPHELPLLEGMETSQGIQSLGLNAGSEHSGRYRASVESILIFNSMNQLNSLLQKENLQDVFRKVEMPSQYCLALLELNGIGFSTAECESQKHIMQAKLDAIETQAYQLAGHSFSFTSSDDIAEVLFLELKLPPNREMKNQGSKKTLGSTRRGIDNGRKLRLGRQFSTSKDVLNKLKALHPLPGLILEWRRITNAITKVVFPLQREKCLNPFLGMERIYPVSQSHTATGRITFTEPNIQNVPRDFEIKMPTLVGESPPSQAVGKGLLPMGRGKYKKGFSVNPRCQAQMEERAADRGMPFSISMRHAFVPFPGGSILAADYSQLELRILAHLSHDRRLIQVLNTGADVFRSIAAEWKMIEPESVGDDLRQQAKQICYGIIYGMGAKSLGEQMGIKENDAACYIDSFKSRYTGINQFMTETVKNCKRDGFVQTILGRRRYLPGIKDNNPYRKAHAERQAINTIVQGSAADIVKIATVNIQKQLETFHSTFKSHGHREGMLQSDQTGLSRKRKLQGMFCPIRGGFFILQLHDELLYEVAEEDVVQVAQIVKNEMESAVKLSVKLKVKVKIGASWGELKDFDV
Effect on: enzyme activity
Action: inhibitor
Concentration: 77 µM
Measurement: remaining activity
CN1CCN(CCCN2c3ccccc3Sc3ccc(Cl)cc32)CC1: 108%
O[C@@H](COc1cccc2ncccc12)CN1CCN(C2c3ccccc3[C@@H]3[C@H](c4ccccc42)C3(F)F)CC1 (some centres unmarked): 113%
CC[C@@H](C(=O)[C@@H](C)[C@@H](O)[C@H](C)CCc1ccc(C)c(O)c1C(=O)O)[C@H]1O[C@](CC)([C@H]2CC[C@](O)(CC)[C@H](C)O2)C[C@@H]1C: 99.5%
O=C(O)c1cn(C2CC2)c2cc(N3CCNCC3)c(F)cc2c1=O: 92.4%
O=C(NCC1CCCCN1)c1cc(OCC(F)(F)F)ccc1OCC(F)(F)F (centres unmarked): 110%
CSC(=N)N: 101%
O=NN(CCCl)C(=O)NCCCl: 101%
CCCSc1ccc2[nH]c(NC(=O)OC)nc2c1: 102%
Cn1c(=O)c2c(ncn2C)n(C)c1=O: 102%
Cc1c(Cc2ccc3ccccc3n2)c2cc(F)ccc2n1CC(=O)O: 99.7%
CN1CCN(C2=Nc3cc(Cl)ccc3Nc3ccccc32)CC1: 101%
Clc1ccc2c(c1)C(N1CCNCC1)=Nc1ccccc1O2: 93.4%

Sample 3
SMILES: CN1CCN(C(=O)c2ccc(NC(=O)Nc3ccc(N(C)c4ccnc(Nc5ccc(CS(C)(=O)=O)cc5)n4)cc3)cc2)CC1
Concentration: 1 µM
Measurement: remaining binding
MAP3K1 (Homo sapiens, UniProt Q13233); competitive binding panel; reference: vehicle: 83%
MAPK8 (Homo sapiens, UniProt P45983); competitive binding; JNK1: 5.5%
Myosin-IIIb (MYO3B, Homo sapiens, UniProt Q8WXR4); competitive binding panel; reference: vehicle: 23%
AXL (Homo sapiens, UniProt P30530); competitive binding panel; reference: vehicle: 9.7%
CAMK2B (Homo sapiens, UniProt Q13554); competitive binding panel; reference: vehicle: 86%
NUAK2 (Homo sapiens, UniProt Q9H093); competitive binding; SNARK: 39%
STK36 (Homo sapiens, UniProt Q9NRP7); competitive binding panel; reference: vehicle: 37%
TNK2 (Homo sapiens, UniProt Q07912); competitive binding panel; reference: vehicle: 6.5%
MAST1 (Homo sapiens, UniProt Q9Y2H9); competitive binding panel; reference: vehicle: 61%
RPS6KA5 (Homo sapiens, UniProt O75582); competitive binding scan; N-terminal kinase domain 1: 100%
MAP2K1 (Homo sapiens, UniProt Q02750); competitive binding; MEK1: 33%
PRKCD (Homo sapiens, UniProt Q05655); competitive binding panel; reference: vehicle: 100%
RIOK1 (Homo sapiens, UniProt Q9BRS2); competitive binding panel; reference: vehicle: 2.2%
CDKL2 (Homo sapiens, UniProt Q92772); competitive binding panel; reference: vehicle: 1.7%
HIPK3 (Homo sapiens, UniProt Q9H422); competitive binding panel; reference: vehicle: 71%
PIKFYVE (Homo sapiens, UniProt Q9Y2I7); competitive binding panel; reference: vehicle: 100%
KIT (Homo sapiens, UniProt P10721, T670I/V559D); competitive binding panel; reference: vehicle: 0.1%

Sample 4
SMILES: Cc1c(NC(=O)c2cc(C(N)=O)nc3cc(F)ccc23)c(C(F)(F)F)nn1Cc1ccc(C(C)(C)C)cc1
Method: competition with immobilised ligand
Concentration: 1 µM
Measurement: remaining binding
TGFBR2 (Homo sapiens, UniProt P37173); cell-free assay: 100%
ROS1 (Homo sapiens, UniProt P08922); cell-free assay: 100%
CASK (Homo sapiens, UniProt O14936); cell-free assay: 100%
NTRK1 (Homo sapiens, UniProt P04629); cell-free assay: 89%
MST1R (Homo sapiens, UniProt Q04912); cell-free assay: 80%
Non-receptor tyrosine-protein kinase TYK2, JH2 (TYK2, Homo sapiens, UniProt P29597); cell-free assay: 100%
PHKG2 (Homo sapiens, UniProt P15735); cell-free assay: 83%
PIK3CG (Homo sapiens, UniProt P48736); cell-free assay: 100%
PAK6 (Homo sapiens, UniProt Q9NQU5); cell-free assay: 100%
MAST1 (Homo sapiens, UniProt Q9Y2H9); cell-free assay: 100%
Tyrosine-protein kinase ABL1, phosphorylated (ABL1, Homo sapiens, UniProt P00519, E255K); binding: 100%
NEK9 (Homo sapiens, UniProt Q8TD19); cell-free assay: 100%
CDK3 (Homo sapiens, UniProt Q00526); cell-free assay: 100%
IRAK4 (Homo sapiens, UniProt Q9NWZ3); cell-free assay: 100%
Myosin-IIIa (MYO3A, Homo sapiens, UniProt Q8NEV4); cell-free assay: 100%
MAPK9 (Homo sapiens, UniProt P45984); cell-free assay: 100%
MAPK7 (Homo sapiens, UniProt Q13164); cell-free assay: 100%
PRKCH (Homo sapiens, UniProt P24723); cell-free assay: 97%
CSK (Homo sapiens, UniProt P41240); cell-free assay: 94%
MTOR (Homo sapiens, UniProt P42345); cell-free assay: 86%
Tyrosine-protein kinase JAK1, JH1 (JAK1, Homo sapiens, UniProt P23458); cell-free assay: 100%
EGFR (Homo sapiens, UniProt P00533); cell-free assay: 100%
Myosin-IIIb (MYO3B, Homo sapiens, UniProt Q8WXR4); cell-free assay: 100%
BTK (Homo sapiens, UniProt Q06187); cell-free assay: 100%
FGFR3 (Homo sapiens, UniProt P22607, G697C); cell-free assay: 97%

For quick reference, copied from above (sample 1):
O=C1NC(=O)/C(=C/c2ccc3c(c2)OC(F)(F)O3)S1: 95.4%
NC(=O)c1cccc(-c2cc(Nc3ccc(OC(F)(F)F)cc3)ncn2)c1: 101%
Clc1ccc(Nc2nnc(Cc3ccncc3)c3ccccc23)cc1: 99.9%
O=Nc1c(-c2c(O)[nH]c3ccccc23)[nH]c2ccccc12: 89.4%
CCN(CC)CCCCN1c2ccccc2Oc2ccc(Cl)cc21: 88.4%
CC(C)(C)c1nc2c3cc[nH]c(=O)c3c3cc(F)ccc3c2[nH]1: 48.2%
O=C(O)/C=C/c1cc(Br)c(Br)c(Br)c1Br: 97.2%
CC(C)n1cnc2c(Nc3cccc(Cl)c3)nc(NCCO)nc21: 88.8%
Nc1nc(Nc2ccc(S(N)(=O)=O)cc2)nn1C(=S)Nc1c(F)cccc1F: 89.4%
